Measurements of several laboratories.
Each line is one published result; not all experiments were run side by side. “And” joins repeats or separate records; there may be more than shown. Numbers after ± are the reported error.

SMILES	assay	test system	conditions	scale	quantity	value
CN[C@@](C)(C[18F])C(=O)O		SCID mouse U87 xenograft, liver	30 min, post injection		tissue uptake	8.9 ± 1.6 %ID/g
O=C(c1ccc(F)c(F)c1Nc1ccc(I)cc1F)N1CC(O)([C@@H]2CCCCN2)C1	item: retinal detachment	human patients	oral, 1 mg/kg, dose expansion, grade G2		treatment-related adverse events	0%
[123I]c1cncc(OC[C@@H]2CCN2)c1	SPECT	human, thalamus	intravenous bolus plus infusion, 5.2 mCi	relative to: plasma	tissue/plasma ratio	62.1
COc1ccc(OCC2c3cccn3CC(=O)N2Cc2cccc(F)c2)cc1 (stereo not drawn)		C57BL/6 mouse male, brain	intraperitoneal, 10 mg/kg		Cmax	962 ± 210 ng/mL
O[C@H]1CCCN[C@@H]1CCCn1cnc2c(Cl)c(Cl)ccc21		healthy human volunteers, plasma	oral, 200 mg, day 1, multiple ascending dose		MRT	7.2 h
CC(=O)N[C@H](CCCCNC(=O)C(C)F)C(=O)N[C@@H](CS)C(=O)N[C@@H](CS)C(=O)N[C@@H](CCC(=O)O)C(=O)N[C@@H](Cc1c[nH]cn1)C(=O)N[C@H](Cc1ccccc1)C(=O)N[C@@H](CCCNC(=N)N)C(=O)N[C@@H](Cc1c[nH]c2ccccc12)C(=O)N[C@@H](CS)C(=O)N[C@@H](CCCNC(=N)N)C(=O)N1CCC[C@H]1C(=O)N[C@H](C(N)=O)C(C)C (stereo partly drawn) [fluorine-18 labelled]		male C57BL/6 mice, B16-F10 tumour, kidney	intravenous, 2 h		kidney uptake	6.76 ± 0.82 %ID/g
Cc1cnc(C(=O)N[C@H]2CCCCC/C=C\[C@@H]3C[C@@]3(C(=O)NS(=O)(=O)C3CC3)NC(=O)[C@@H]3C[C@@H](Oc4nc5ccccc5c5ccccc45)CN3C2=O)cn1		healthy human volunteers, plasma	oral, dose not given, warfarin interaction study	relative to: given without warfarin	AUC(0-24)	5300 ng·h/mL
O=C(C[18F])NCCCCCC(=O)Nc1ccccc1	dynamic PET	rhesus monkey, brain regions	intravenous	relative to: [18F]FACE	k1 and k2 rate constants	10 to 20 fold
CCCCCCCCCCCCCCCC[N+](C)(C)CCCCCCCCCCCCCCCC	in vitro-in vivo extrapolation	human			hepatic clearance	0.328 mL/h/g liver
ClC=C(Cl)Cl		human, venous blood	inhalation, 100 ppmv for 4 h		compartment 2 half-life	1.08 h and 5.5 h
CCCCCOc1ccc(-c2ccc(-c3ccc(C(=O)N[C@H]4C[C@@H](O)[C@@H](O)NC(=O)[C@@H]5[C@@H](O)[C@@H](C)CN5C(=O)[C@H]([C@@H](C)O)NC(=O)[C@H]([C@H](O)[C@@H](O)c5ccc(O)cc5)NC(=O)[C@@H]5C[C@@H](O)CN5C(=O)[C@H]([C@@H](C)O)NC4=O)cc3)cc2)cc1		patients aged sample A to <sample B years, plasma	intravenous, loading 200 then 100 mg daily		AUC(0-24) steady state mean	83800 ng·h/mL
Oc1cccc2ccccc12	fish short-term reproduction	Oryzias latipes, male, water, flow-through	80.0 µg/L, end of exposure		body weight	645 ± 53 mg

Excerpt of the above:
SMILES	assay	test system	conditions	scale	quantity	value
[123I]c1cncc(OC[C@@H]2CCN2)c1	SPECT	human, thalamus	intravenous bolus plus infusion, 5.2 mCi	relative to: plasma	tissue/plasma ratio	62.1
Cc1cnc(C(=O)N[C@H]2CCCCC/C=C\[C@@H]3C[C@@]3(C(=O)NS(=O)(=O)C3CC3)NC(=O)[C@@H]3C[C@@H](Oc4nc5ccccc5c5ccccc45)CN3C2=O)cn1		healthy human volunteers, plasma	oral, dose not given, warfarin interaction study	relative to: given without warfarin	AUC(0-24)	5300 ng·h/mL
